Experimental data from different studies.
A part holds a random share of what one study measured.
UniProt Q9NQU5, sequence (whole entry, looked up): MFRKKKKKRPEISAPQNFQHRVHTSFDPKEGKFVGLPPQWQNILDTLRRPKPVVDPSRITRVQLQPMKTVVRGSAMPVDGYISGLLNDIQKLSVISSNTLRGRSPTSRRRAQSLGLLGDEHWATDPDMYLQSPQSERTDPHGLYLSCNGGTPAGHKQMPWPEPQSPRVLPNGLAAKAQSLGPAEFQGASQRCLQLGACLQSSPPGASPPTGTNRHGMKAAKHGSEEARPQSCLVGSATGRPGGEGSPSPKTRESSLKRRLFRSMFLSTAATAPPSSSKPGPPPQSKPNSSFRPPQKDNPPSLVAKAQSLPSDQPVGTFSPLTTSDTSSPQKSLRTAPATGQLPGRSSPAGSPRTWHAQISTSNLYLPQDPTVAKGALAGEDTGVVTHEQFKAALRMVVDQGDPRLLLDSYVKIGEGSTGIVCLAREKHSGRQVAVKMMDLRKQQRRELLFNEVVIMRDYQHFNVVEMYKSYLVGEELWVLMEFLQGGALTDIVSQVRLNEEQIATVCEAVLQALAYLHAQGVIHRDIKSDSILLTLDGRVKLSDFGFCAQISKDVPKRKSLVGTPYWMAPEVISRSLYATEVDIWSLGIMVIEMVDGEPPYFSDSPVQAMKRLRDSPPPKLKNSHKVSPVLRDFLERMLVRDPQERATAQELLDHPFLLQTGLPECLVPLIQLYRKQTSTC
UniProt Q9Y3S1, sequence (whole entry, looked up): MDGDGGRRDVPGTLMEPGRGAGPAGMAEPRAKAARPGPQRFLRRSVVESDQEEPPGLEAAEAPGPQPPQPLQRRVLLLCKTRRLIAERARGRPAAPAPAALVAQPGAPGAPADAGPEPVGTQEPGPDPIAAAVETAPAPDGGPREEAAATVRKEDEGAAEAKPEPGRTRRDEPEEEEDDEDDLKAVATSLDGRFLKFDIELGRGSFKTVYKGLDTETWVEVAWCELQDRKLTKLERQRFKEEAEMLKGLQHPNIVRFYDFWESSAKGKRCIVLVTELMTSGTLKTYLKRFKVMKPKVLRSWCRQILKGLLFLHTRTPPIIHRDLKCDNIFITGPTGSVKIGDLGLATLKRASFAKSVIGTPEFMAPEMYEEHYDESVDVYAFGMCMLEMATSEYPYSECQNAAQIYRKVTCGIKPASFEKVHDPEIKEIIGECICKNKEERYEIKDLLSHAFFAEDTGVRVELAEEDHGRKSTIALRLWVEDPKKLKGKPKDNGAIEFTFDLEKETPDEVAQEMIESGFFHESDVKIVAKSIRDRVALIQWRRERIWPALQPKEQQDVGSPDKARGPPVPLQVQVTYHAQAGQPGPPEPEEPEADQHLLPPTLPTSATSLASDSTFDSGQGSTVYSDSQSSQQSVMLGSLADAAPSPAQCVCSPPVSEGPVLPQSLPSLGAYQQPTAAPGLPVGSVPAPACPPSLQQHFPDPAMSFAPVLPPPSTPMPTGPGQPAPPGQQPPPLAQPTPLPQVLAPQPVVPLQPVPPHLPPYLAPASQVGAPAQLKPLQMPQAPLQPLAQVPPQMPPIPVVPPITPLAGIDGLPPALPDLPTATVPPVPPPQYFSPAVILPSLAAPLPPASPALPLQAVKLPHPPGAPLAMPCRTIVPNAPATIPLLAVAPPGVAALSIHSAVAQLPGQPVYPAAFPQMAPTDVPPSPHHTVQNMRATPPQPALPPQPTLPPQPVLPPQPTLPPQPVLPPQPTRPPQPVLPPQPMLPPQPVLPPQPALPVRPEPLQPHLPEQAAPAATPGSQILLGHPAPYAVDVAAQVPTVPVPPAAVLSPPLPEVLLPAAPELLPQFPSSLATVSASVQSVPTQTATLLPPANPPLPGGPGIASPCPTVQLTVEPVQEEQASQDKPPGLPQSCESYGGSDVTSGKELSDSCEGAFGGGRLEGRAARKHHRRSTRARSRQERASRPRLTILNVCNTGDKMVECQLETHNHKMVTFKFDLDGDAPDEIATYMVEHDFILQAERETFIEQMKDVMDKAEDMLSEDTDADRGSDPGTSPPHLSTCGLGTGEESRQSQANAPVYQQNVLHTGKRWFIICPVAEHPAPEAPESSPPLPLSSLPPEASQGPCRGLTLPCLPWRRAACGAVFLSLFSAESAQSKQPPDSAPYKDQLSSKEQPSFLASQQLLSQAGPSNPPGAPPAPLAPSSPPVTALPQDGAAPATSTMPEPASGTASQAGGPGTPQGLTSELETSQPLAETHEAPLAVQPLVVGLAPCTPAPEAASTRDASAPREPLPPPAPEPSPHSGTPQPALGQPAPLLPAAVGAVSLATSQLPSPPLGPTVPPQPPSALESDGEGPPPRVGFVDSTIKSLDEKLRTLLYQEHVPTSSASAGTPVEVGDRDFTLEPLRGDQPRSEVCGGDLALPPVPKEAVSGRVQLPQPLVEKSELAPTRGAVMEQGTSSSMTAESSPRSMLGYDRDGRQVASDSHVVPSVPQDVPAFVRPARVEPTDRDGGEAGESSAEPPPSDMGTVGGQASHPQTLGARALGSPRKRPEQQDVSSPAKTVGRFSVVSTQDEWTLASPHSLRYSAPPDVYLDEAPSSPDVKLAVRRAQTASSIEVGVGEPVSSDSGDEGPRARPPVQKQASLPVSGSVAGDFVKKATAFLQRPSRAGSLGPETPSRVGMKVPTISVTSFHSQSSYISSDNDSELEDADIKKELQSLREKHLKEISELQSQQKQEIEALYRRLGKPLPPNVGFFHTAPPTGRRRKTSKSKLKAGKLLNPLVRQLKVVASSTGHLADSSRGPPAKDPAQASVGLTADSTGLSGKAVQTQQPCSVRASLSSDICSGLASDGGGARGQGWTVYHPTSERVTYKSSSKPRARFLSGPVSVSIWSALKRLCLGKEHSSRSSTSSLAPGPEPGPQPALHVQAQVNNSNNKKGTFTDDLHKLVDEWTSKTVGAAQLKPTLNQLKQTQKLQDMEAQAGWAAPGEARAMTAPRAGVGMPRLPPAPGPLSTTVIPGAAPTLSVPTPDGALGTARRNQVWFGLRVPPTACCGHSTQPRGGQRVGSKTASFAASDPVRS
UniProt Q8NE63, sequence (whole entry, looked up): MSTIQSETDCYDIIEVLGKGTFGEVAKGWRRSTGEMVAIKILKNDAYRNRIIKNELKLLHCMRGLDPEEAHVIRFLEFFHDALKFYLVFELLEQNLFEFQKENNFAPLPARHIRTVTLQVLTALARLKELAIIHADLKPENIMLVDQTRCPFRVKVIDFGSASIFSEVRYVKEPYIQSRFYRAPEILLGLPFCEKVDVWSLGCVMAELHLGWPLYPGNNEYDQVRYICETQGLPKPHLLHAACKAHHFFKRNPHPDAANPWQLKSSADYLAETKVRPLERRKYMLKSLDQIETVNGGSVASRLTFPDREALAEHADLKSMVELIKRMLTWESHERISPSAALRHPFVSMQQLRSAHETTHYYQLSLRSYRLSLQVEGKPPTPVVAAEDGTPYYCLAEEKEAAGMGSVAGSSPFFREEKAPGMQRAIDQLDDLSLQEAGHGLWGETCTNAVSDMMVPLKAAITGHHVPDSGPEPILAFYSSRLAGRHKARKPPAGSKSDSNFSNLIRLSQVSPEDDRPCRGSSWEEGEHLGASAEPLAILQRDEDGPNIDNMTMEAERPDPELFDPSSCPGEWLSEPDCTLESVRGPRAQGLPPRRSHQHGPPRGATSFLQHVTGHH
UniProt P21127, sequence (whole entry, looked up): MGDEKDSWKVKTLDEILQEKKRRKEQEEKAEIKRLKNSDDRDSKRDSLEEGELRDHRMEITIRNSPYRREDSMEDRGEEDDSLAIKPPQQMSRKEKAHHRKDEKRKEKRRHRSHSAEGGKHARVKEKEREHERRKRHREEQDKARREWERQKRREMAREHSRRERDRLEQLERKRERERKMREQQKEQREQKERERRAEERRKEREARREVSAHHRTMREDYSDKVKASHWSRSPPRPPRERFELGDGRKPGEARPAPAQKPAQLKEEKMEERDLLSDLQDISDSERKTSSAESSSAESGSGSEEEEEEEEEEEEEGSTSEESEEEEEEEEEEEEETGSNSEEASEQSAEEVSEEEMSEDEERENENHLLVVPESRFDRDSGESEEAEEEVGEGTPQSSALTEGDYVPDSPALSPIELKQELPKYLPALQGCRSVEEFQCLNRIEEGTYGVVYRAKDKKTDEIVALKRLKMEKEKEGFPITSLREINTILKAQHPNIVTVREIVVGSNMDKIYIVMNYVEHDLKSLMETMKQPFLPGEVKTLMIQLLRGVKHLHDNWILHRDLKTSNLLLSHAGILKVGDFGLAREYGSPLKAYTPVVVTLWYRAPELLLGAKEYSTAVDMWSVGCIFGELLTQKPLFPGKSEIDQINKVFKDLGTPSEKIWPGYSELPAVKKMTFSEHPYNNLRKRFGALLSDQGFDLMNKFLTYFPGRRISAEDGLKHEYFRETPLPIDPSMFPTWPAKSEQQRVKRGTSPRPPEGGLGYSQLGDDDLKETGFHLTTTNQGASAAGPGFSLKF
UniProt P0C1S8, sequence (whole entry, looked up): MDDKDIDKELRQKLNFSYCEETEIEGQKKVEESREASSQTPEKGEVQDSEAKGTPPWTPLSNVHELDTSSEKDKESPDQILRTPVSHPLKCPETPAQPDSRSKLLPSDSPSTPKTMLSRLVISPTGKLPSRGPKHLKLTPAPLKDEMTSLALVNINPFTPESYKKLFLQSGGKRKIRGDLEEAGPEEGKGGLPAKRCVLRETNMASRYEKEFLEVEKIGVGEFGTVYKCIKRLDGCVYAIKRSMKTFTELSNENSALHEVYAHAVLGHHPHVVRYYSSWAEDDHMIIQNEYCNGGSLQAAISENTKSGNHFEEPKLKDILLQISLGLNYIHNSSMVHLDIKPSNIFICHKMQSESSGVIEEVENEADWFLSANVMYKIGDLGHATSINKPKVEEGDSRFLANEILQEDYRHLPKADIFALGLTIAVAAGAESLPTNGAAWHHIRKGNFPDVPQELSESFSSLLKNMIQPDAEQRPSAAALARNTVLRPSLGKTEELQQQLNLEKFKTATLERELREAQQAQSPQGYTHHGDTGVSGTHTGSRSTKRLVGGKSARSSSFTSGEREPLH

Sample 1
Target: His6 tag
Technique: AlphaScreen counter screen
Tested at: concentration not given
| Structure (SMILES) | inhibition [%] |
| --- | --- |
| O=C(NCC1CCCO1)c1n[nH]c2ccccc12 (centres unmarked) | -0.275 |
| CC(C)c1nn(-c2c(Cl)cccc2Cl)c2nc(Cc3ccc(OCCO)cc3)[nH]c(=O)c12 | 22 |
| COC(=O)CSc1ccc2nnc(-c3cccc(F)c3)n2n1 | 6.35 |
| CNC(=O)c1cc(Oc2ccc(NC(=O)Nc3ccc(Cl)c(C(F)(F)F)c3)c(F)c2)ccn1 | 6.65 |
| O=C(CSc1ccc2nnc(-c3cccc(F)c3)n2n1)Nc1ccc(F)cc1F | -7.8 |
| NC1(C(=O)N[C@@H](CCO)c2ccc(Cl)cc2)CCN(c2ncnc3[nH]ccc23)CC1 | 17.3 |
| CC(C)OC(=O)CNC(=O)c1cc2c(=O)n3ccccc3nc2n1C | 6.2 |
| COc1ccc(C(=O)Nc2sc3c(c2C(N)=O)CCCC3)cc1OC | 4.25 |
| COc1ccc(-c2nnc(SCC(=O)Nc3ccc(F)cc3F)n2-n2cccc2)cc1 | 12.7 |

Sample 2
Structure (SMILES): Cn1nc(C(=O)NCc2ccc(C(=O)O)cc2)cc1-c1ccc2[nH]ccc2c1
Technique: competition with immobilised ligand
Tested at: 0.1 µM
| target | effect on | remaining binding [%] |
| --- | --- | --- |
| Homeodomain-interacting protein kinase 4 (HIPK4, Homo sapiens, UniProt Q8NE63) | cell-free assay | 100 |
| Wee1-like protein kinase 2 (WEE2, Homo sapiens, UniProt P0C1S8) | cell-free assay | 91 |
| Cyclin-dependent kinase 13 (CDK13, Homo sapiens, UniProt Q14004) | cell-free assay | 72 |
| Serine/threonine-protein kinase WNK3 (WNK3, Homo sapiens, UniProt Q9BYP7) | cell-free assay | 67 |
| Serine/threonine-protein kinase WNK2 (WNK2, Homo sapiens, UniProt Q9Y3S1) | cell-free assay | 70 |
| Cyclin-dependent kinase 11A (CDK11A, Homo sapiens, UniProt Q9UQ88) | binding | 96 |
| Serine/threonine-protein kinase MRCK alpha (CDC42BPA, Homo sapiens, UniProt Q5VT25) | cell-free assay | 79 |
| TGF-beta receptor type-1 (TGFBR1, Homo sapiens, UniProt P36897) | cell-free assay | 97 |
| Serine/threonine-protein kinase LATS1 (LATS1, Homo sapiens, UniProt O95835) | cell-free assay | 100 |
| Inhibitor of nuclear factor kappa-B kinase subunit alpha (CHUK, Homo sapiens, UniProt O15111) | cell-free assay | 90 |
| NT-3 growth factor receptor (NTRK3, Homo sapiens, UniProt Q16288) | cell-free assay | 89 |
| Cyclin-dependent kinase 11B (CDK11B, Homo sapiens, UniProt P21127) | cell-free assay | 93 |
| Activin receptor type-2B (ACVR2B, Homo sapiens, UniProt Q13705) | cell-free assay | 100 |
| Mitogen-activated protein kinase kinase kinase 1 (MAP3K1, Homo sapiens, UniProt Q13233) | cell-free assay | 65 |
| Cyclin-dependent kinase 4, with cyclin D1 (CDK4, Homo sapiens, UniProt P11802) | cell-free assay | 96 |
| Epidermal growth factor receptor (EGFR, Homo sapiens, UniProt P00533, del747-750/T751S) | cell-free assay | 74 |
| Receptor-type tyrosine-protein kinase FLT3 (FLT3, Homo sapiens, UniProt P36888, R834Q) | cell-free assay | 63 |
| Receptor-interacting serine/threonine-protein kinase 2 (RIPK2, Homo sapiens, UniProt O43353) | cell-free assay | 100 |
| Casein kinase I isoform gamma-2 (CSNK1G2, Homo sapiens, UniProt P78368) | cell-free assay | 90 |
| Leucine-rich repeat serine/threonine-protein kinase 2 (LRRK2, Homo sapiens, UniProt Q5S007, G2019S) | cell-free assay | 70 |
| LIM domain kinase 2 (LIMK2, Homo sapiens, UniProt P53671) | cell-free assay | 100 |
| Mitogen-activated protein kinase kinase kinase kinase 3 (MAP4K3, Homo sapiens, UniProt Q8IVH8) | cell-free assay | 97 |

Sample 3
Compound: CN1CCN(C(=O)c2ccc(NC(=O)Nc3ccc(N(C)c4ccnc(Nc5ccc(CS(C)(=O)=O)cc5)n4)cc3)cc2)CC1
Technique: competitive binding panel
Tested at: 1 µM
Baseline: vehicle
| target | measured | remaining binding [%] |
| --- | --- | --- |
| Cyclin-dependent kinase 7 (CDK7, Homo sapiens, UniProt P50613) | – | 61 |
| Calcium/calmodulin-dependent protein kinase type II subunit alpha (CAMK2A, Homo sapiens, UniProt Q9UQM7) | – | 86 |
| Serine/threonine-protein kinase tousled-like 1 (TLK1, Homo sapiens, UniProt Q9UKI8) | – | 86 |
| Serine/threonine-protein kinase 24 (STK24, Homo sapiens, UniProt Q9Y6E0) | MST3 | 47 |
| Transient receptor potential cation channel subfamily M member 6 (TRPM6, Homo sapiens, UniProt Q9BX84) | – | 91 |
| Bone morphogenetic protein receptor type-2 (BMPR2, Homo sapiens, UniProt Q13873) | – | 56 |
| Mitogen-activated protein kinase kinase kinase 20 (MAP3K20, Homo sapiens, UniProt Q9NYL2) | ZAK | 86 |
| Serine/threonine-protein kinase PAK 6 (PAK6, Homo sapiens, UniProt Q9NQU5) | – | 92 |

Sample 4
Structure (SMILES): CC#CC(=O)N1CCC[C@H]1c1nc(-c2ccc(C(=O)Nc3ccccn3)cc2)c2c(N)nccn12
Action: inhibitor
Tested at: 1 µM
| target | effect on | inhibition |
| --- | --- | --- |
| Serine/threonine-protein kinase 25 (STK25, Homo sapiens, UniProt O00506) | enzyme activity | 0% |
| Phosphatidylinositol 3-kinase catalytic subunit type 3 (PIK3C3, Homo sapiens, UniProt Q8NEB9) | enzyme activity | 25% |
| Serine/threonine-protein kinase SIK1 (SIK1, Homo sapiens, UniProt P57059) | enzyme activity | 4% |
| Serine/threonine-protein kinase OSR1 (OXSR1, Homo sapiens, UniProt O95747) | enzyme activity | 0% |
| Epidermal growth factor receptor (EGFR, Homo sapiens, UniProt P00533, G719S) | enzyme activity | 1% |
| Tyrosine-protein kinase ABL1, non-phosphorylated (ABL1, Homo sapiens, UniProt P00519, Q252H) | enzyme activity | 31% |
| Serine/threonine-protein kinase RIO1 (RIOK1, Homo sapiens, UniProt Q9BRS2) | enzyme activity | 76% |
| Ribosomal protein S6 kinase alpha-1, kinase domain 1 (RPS6KA1, Homo sapiens, UniProt Q15418) | – | 7% |

Excerpt of the above (sample 4):
| target | effect on | inhibition |
| --- | --- | --- |
| Serine/threonine-protein kinase OSR1 (OXSR1, Homo sapiens, UniProt O95747) | enzyme activity | 0% |
| Ribosomal protein S6 kinase alpha-1, kinase domain 1 (RPS6KA1, Homo sapiens, UniProt Q15418) | – | 7% |
| Epidermal growth factor receptor (EGFR, Homo sapiens, UniProt P00533, G719S) | enzyme activity | 1% |
| Serine/threonine-protein kinase 25 (STK25, Homo sapiens, UniProt O00506) | enzyme activity | 0% |
| Serine/threonine-protein kinase SIK1 (SIK1, Homo sapiens, UniProt P57059) | enzyme activity | 4% |
| Serine/threonine-protein kinase RIO1 (RIOK1, Homo sapiens, UniProt Q9BRS2) | enzyme activity | 76% |
| Tyrosine-protein kinase ABL1, non-phosphorylated (ABL1, Homo sapiens, UniProt P00519, Q252H) | enzyme activity | 31% |
